Experimental data pooled from the literature.
Numbered parts are unrelated; each lists some results of a single study.

Set 1 — technique: RNA Bind-n-Seq; molecule type: RNA; sample: in vitro; concentration: 200 nM; setting: whole 134-nt RNA, ends assumed; together with: 150 mM LiCl; relative to: input library; direction: higher = stronger binding; quantity: log2 enrichment; library: 7-deaza-guanosine replaces G
Target: Fragile X messenger ribonucleoprotein 1, C-terminal low-complexity region (Fmr1, Mus musculus, UniProt P35922)
All sequences stand within: GGGAGUUCUACAGUCCGACGAUC … UGGAAUUCUCGGGUGUCAAGG
CCUGUGCUACACAUCGUAUGUACCGAAUCGGGGUUUUUGGGGUUUGGGGAAAAAAAGGGGAAAGUAUUAUGUUACGCCGUUCGGAUCUGC: -1.2
CCUGUGCUACACAUCGUAUGUACCGAAUCGGGGUUUUUUUGGGGAGGGGUUUUUUUGGGGAAAGUAUUAUGUUACGCCGUUCGGAUCUGC: 0.357
CUGUGCUACACAUCGUAUGUACCGAAUCGGGGAAAAAAAGGGAAAAAAAGGGAAAAAAAGGGAAAGUAUUAUGUUACGCCGUUCGGAUCU: 0.388
UAACCUUAGAGGAGGAUCUGAUGGAUAUGGCAGUGGACGUGGAUUUGGGGAUGGCUAUAAUGGGUAUGGAGGAGGACCUGGAGGUGGCAA: 0.184
UCGGAGGUGGAUUUUGUUUAUUUUUUUAGCUCAUUUCCAGGGGUGGGAAUUUUUUUUUAAUAUGUGUCAUGAAUAAAGUUGUUUUUGAAA: 0.542
ACCAUGCAGGUGGGCAUCUUUGGGAAGUGGGGCAAGGGGGGGAUAGGGAGGGGGGUAACACGUUGGGAACAGGUGGUCCCAGGUCGUUUC: 1.6
UCCUCAAGUCCUGUGCUACACAUCGUAUGUACCGAAUCGGGCGGGCGGCGGGAAAGUAUUAUGUUACGCCGUUCGGAUCUGCACUUCCAG: 0.783
UGUCAGUAUCAUACAUAACAGAGGAAUGCCUGAAGAAGCUGGACACAAAGCAGCAGACCAACACCCUGCUCAACCUGGUGUGGAGGGACU: -1.72
GCAGGAAGUAAAAACAAAUGGAAAUGCUUCGGAUAGUGGCAGGGCUGGGGGUUGCUAAGGAAAGGGUGGGAUGGGAGUGGGUAAAGAGUU: 1.47
UGGUGACCUACCUGGACGUCCGGAGCUGCCUUGGACACCUAGGCUACCUGGGCUACCCCACCCUCUGUGAGCAGGACCAGGCCCAUGCCA: 0.207
CCUCAAGUCCUGUGCUACACAUCGUAUGUACCGAAUCGGAGGAAAGGAAAGGAAAGUAUUAUGUUACGCCGUUCGGAUCUGCACUUCCAG: -0.969

Set 2 — technique: RNA Bind-n-Seq; molecule type: RNA; sample: in vitro; concentration: 365 nM; relative to: no-protein control; direction: higher = stronger binding; quantity: RBNS enrichment (R)
Target: RNA binding protein fox-1 homolog 2, RRM domain, GST-SBP tag (RBFOX2, Homo sapiens, UniProt O43251-10, residues 100-194)
Setting: natural RNA segment, single round, ends assumed
All sequences stand within: GGGAGUUCUACAGUCCGACGAUC … UGGAAUUCUCGGGUGCCAA
Residues (chain): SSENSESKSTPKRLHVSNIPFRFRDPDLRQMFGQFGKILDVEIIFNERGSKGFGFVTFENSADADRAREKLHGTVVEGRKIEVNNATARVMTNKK
UUCACAGGUACCCUCCCUCGGGCCCUUUUGAUUCUGGGAGUUAGGUUGUGUUUUAUGUUCUUAGAGGACAUAUUUUUGAUGAGGCCAAAACUGCUGUUCUGUUUCGUUGA: 0.438
CUGCCUCUCACCUCCGAGCACUACAUUGUGGCUGUCCCCUGCCCGCCUGCCCGCCUUCUGUCCUGGAUCAGGAAGAUGGUAGCCUGCUGUUAGUAGCUUCACAGGGCUUU: 0.364
AAGAUUAGAAAAGGAACCCAAAAAACCCUUUAACAGUGUGAAUCUUUAUAGUAUUUGAAAAUGAGAAGAAGCAGCAGAUUGUAAUUUGGUUUAUUGGAUGUGAUGGACGU: 0.626
UACUGUCUGAUUGGCUUGUAGAAUUGUUAUAGACUGCCGUGCAUUAGCACAGAUUUUAAUUGUCAUGGUUACAAACUACAGACCUGCUUUUUGAAAUGAAAUUUAAACAU: 0.604
AAUCAGUGAGGUUGAUUUUUCUUUUUUCCUACCGUUUCAUAGUCUUUGUCUAACUGCUAGUAACCCUACCGAGUUUUAUAUAUGAGUGGGAUACUCAAUCUGGCCUUAAA: 0.808
GCUCAGACCAUUAUUUAUUUCUUGAGUGUAUAUAAGUAUAAAGACAAAUCUAUGGUUAGUUUUUACUUUAAGAUUAACCGAUUUCAAGAUUUACAAAAAAAAACAACAAA: 0.569
ACAGUUGCAUGUUCAACUUGUCAUAGCUGGAAUUACUGUAUAAAAAGAACUGAUUGUGACUUGUAGUUCUUCUCUAGAGGAUGCUGCUAGAACGUGGUUUUGCUUUGCAU: 6.3
GGCUGAACUUGAUAGCAGACCUGCUCGGGUCCCUGCCUCCCACUCUGGCCUCUGCCUUUCUCCCUCCUGCCUUCUGCUUGGGGAACUCAGGGCUUCACUCCCAGAGCACC: 0.315
GGAUCCUGGGCUGGGUGGCCCCUGUCUCGGGGCUUGCCCCACUCUGCCUGCCUGCUGUUGGUCCUCUCUCUGUGGGGCUGAAUUGCCAGGGGCGAGGCCCUUCCUCUUUG: 1.01

Set 3 — technique: EMSA with sequencing; molecule type: double-stranded DNA, one strand shown; sample: in vitro; concentration: 10 and 20 nM; relative to: negative control set to 0; direction: higher = stronger binding; quantity: normalised bound fraction
Target: Hepatocyte nuclear factor 3-alpha (Foxa1, Mus musculus, UniProt P35582, residues 1-468, full length assumed)
Setting: whole designed probe, mean of two concentrations, ends assumed
All sequences stand within: GTGAGCGGTGCCCATTGATGGGGAAC … TTTCACTGGGATCGTGGGGAC
Target sequence (chain): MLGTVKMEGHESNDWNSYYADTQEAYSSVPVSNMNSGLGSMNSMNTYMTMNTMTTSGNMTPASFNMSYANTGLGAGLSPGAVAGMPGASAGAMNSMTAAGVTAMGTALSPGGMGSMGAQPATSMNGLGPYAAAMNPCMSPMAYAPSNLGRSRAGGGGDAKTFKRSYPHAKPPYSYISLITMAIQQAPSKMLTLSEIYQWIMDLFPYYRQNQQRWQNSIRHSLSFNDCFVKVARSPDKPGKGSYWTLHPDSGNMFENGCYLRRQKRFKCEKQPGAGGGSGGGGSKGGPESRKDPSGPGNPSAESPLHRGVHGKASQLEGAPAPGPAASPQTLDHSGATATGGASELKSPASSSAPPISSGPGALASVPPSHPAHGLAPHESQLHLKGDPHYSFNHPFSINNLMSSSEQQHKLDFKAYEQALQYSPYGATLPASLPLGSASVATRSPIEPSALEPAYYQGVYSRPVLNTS
GGCTCCAAACGGCTGAATCAGCATTTTCAGAAACAAAGTGTTCTAGGCCTGGCCTTTTAAACAGTTGTGCAATGCAGCAACGAGCAAAACGCATATTTACTCACGAGCTCTCCTTGTTTTGGTCTTTCCCCCCTCCCCCCCATCTCTTGAATGAAACTGGGCACCAAGTTTGCAAGAAAATATTCTTTCAAAC: 0.106 ratio
AGTGTCTATAATATATTTATATATGTGTATATACCTACACACACACATGTAATTTTAAACAAACAATTTTAAACCAAAGCAGAGAAATTCCCTGTTTACTTTTGTGGTCTTTTGATTGGATTAGGAAATTGCATTTATAAAGGCCCCTTTGACCAGGAATAATTTTGTAATCTGGATGGGAAATTTCTTTCTT: 0.467 ratio
AGACTGGGAATCTGAGCAATGCTCATGGCAATAAGCCAGGACCAGGCCCTAAACATCTGGCTGCTCCACTGTATGGATCTTTGGCATGTTAAATGTCATCTGACCTTGTGGATATAAAGTTGACTCAGTCAGAAAACATCTACGGTCTACATGGAAAAGAAAGTCTTTTGGAAAGAAAAGAAGGCAGGGTGTC: -0.0394 ratio
CAATGGGGTAGGTCAGCCCCAGTGAACTCTCAAATGACCACTGAAGGAGGAAGTGAGTGCAGAGTGTGATACCACTCACATCCCAGCCCAGACAGATTGCTCAGCTGGGAGGAGTGTTGCAATTCTTCTTCCTGCAGAGATAACACCCCTTCTCATGGCTTCAGGCATCACCTATCTCCTCTAGGCTGCGCTC: -0.0715 ratio
TAGCCCCTAAAATACTCCTCCTTTACGCCAAAAGATTCTCTTTTCAGCTGTGTTTAAAGTGAAACAATTTTTTATTACGAAAAATTTTGAAAATGTAAACATGCAAAAAAGATAAGCAAGACTGCTATAATCTAGAGCAAACCAATCTCAATATTTTGATGCATAGCCTTCTAAAATTTTTCTCTTTCTATAT: 0.238 ratio
GGCTCCAAACGGCTGAATCAGCATTTTCAGAAACAAAGTGTTCTAGGCCTGGCCTTTTAAACAGCAGGTTGTGCAATCAACGAGCAAAACGCATATTTACTCACGAGCTCTCCTTGTTTTGGTCTTTCCCCCCTCCCCCCCATCTCTTGAATGAAACTGGGCACCAAGTTTGCAAGAAAATATTCTTTCAAAC: 0.132 ratio

Set 4 — technique: RNA Bind-n-Seq; molecule type: RNA; sample: in vitro; concentration: not given; relative to: input RNA pool; direction: higher = stronger binding; quantity: bound/input enrichment
Target: RING finger protein unkempt homolog, zinc fingers 1-6, GST-SBP tag (UNK, Homo sapiens, UniProt Q9C0B0, residues 30-357)
Setting: RNA with constant flanks, human and mouse sites, ends assumed
All sequences stand within: GGGAGUUCUACAGUCCGACGAUC … CAACAGAGGAUUGAGCAUCA
Target sequence (chain): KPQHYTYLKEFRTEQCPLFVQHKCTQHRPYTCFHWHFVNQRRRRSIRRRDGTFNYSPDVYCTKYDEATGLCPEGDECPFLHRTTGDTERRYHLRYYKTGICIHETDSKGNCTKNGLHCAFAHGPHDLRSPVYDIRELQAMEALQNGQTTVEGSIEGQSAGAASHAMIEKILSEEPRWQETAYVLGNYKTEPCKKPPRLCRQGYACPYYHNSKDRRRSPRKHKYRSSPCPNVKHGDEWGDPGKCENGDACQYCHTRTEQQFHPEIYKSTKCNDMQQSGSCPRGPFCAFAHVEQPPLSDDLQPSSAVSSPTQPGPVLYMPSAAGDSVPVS
AUGACUUCCCGCCUGACACCAUCAGUUACUCCGGUGUAUGCACCUGGGUUCCCUUCAGUUGUAGCUCCAAACUUCAGUUUAGGGGUAGAGCCAAAUUCAUUACAGACUCUGAAGCUAAUG: 0.244 ratio
GCCCGGAUGAACUUCAGGGCUAAGGAAUAUGAGAGUUUAAUGGAAACCAAAAAUUCUGGCUCUGAUUCACCUUAUAAAGCAAAGCUUCAGCGAUUAGCCAAAGAUCUUCUAAAACAAGUA: 0.251 ratio
CCUGCCAACGGGGACUUCACCUUUGUGUCUUCGGCGGACGCGGAAGAUCUCAGCGGUUCUAUAGCAGCUCCAGAUGUCAAAUUAAACCUCGGUGUAAGCGGAGAUUUCAUCAAAGAAUCU: 0.0576 ratio
CAAGAAGGUUGCUGCUUGGUUCGUUCCAAAGACGAAGAAGCUGACAGUGAUAAUUAUGAAGUUUUAUUCAACCUGGAAGAACUUAAAUUGGAUCAGCCUUUCAUUGAUUGCAUCAGAGUU: 0.222 ratio
CUCCCUUUUCACCCACCUUUCCUCCCUCACCUCUCCUCACCUCCACCCCCUCCCCAGAGCACUAGUCAUGCCGCAAAUGCUAGGAAGUGCCAUUUUCAUUUUCUCCACUGUGCGUGUGUG: 0.888 ratio
AGUUUCCAGUGAAAGUAAUAUGUAGUGCUUUUAUGAUAUUUGUGUGCAAUAUCCCCUCUUCCAUUGAGGAUAUUUGAUGUAAAGGAAAAAAAAAAACUCAGUUCCACAAUAAAAUACAAA: 0.462 ratio
CGAUUAGUUUAAGCUGUUUCAUGUAUUUUACUUUAAACCUUAUUUUGGCAACUUAUCUUGUUAGCAUUAUAAAAACUUACUUAAAAUACUAUUUUACUACAAAACAAAACAUUUAUUACA: 4.6 ratio
GCGAACAGCCAUUAGGAAGAAUGCUGAGUGCUCCGGCGUGAGUCGUGACUUCUGAUGACCUAGCAAAUAAUGCCACACACUGCAAUACUGUGAAGACACUCGCAAGGAUACAGCAGUGAU: 0.361 ratio
AAUGCACAUGCACAAUAAUUUCCUGAAAGCCAUAGGACAUGUCUGUAGUCAGCACCACGAUAGCACCGUUUCAUGAAAGGCAUGGCGGCUGCAUUUCAUACCACAUCAAAAUACAGUAAC: 0.441 ratio
AAUAUGGCAUCUUCCUUGCUUGCUAUAGCAGGGGAAGGGAAAAUGCCAGUCUUUUUAAUCUAGCAAGCUUCUCGAUCUUAUAAUUAUUAUUUUUUUAAAUUCUGGUCAUGGAUGCUUCUU: 4.88 ratio
UGUACCGACCUUCUGAACAAGGCCAACACCUAUGCAGAGCAACAUUUUGCAGAUGUUGUACUUAGUGAAGAAUUUCUCAAUCUUGGCAUCGAACAAGUGUGCAGCUUAAUCUCAAGUGAC: 0.0838 ratio
